Results collected from several papers.
Lines come from different studies, so protocols differ.

`CN[C@@H]1COc2c(S(=O)(=O)NC(=O)Nc3c4c(cc5c3CCC5)CCC4)cnn2C1`: “fraction excreted in urine” 0.162 (human, urine; oral, 150 mg, 0-48 h).
Under “fraction excreted in urine (0-24 h)”, `CC(C)(Sc1ccncc1-c1ccc(C#N)c2ccccc12)C(=O)O` is recorded as 1.89% (human, urine; oral, 10 mg, together with: febuxostat 0 mg).
Under “fraction excreted unchanged”, `Cl.[2H]C([2H])([2H])CC(=O)c1cnc(NC(=O)C2CC2)cc1Nc1cccc(-c2ncn(C([2H])([2H])[2H])n2)c1OC` is recorded as < 1% (human, urine; oral, dose not given).
For `CC(C)n1c(C2CCNCC2)nc2c([N+](=O)[O-])c(Br)c(Br)cc21`, “fraction excreted in urine” read 0.01 (human, urine; oral, 75 mg, median, single dose).
Under “fraction excreted unchanged in urine”, `Cn1cc(-c2cn3nccc3c(-c3cnn([C@]4(CC#N)C[C@@H](C#N)C4)c3)n2)cn1` is recorded as 1.2% (human, urine; oral, 1200 mg once daily, day 10, dosing interval geometric mean).
For `Cc1cc(-c2nccc3c2ccn3CC(=O)Nc2ccc(-c3cnccn3)cn2)ccn1`, “fraction excreted in urine (fe)” read 0.765% (human, urine; oral, 20 mg once daily, day 1, geometric mean).
Under “fraction excreted in urine”, `NC[C@@]1(CC(=O)O)[C@@H]2CC[C@H]3C[C@@H]2[C@@H]1C3` is recorded as 70% (human, normal renal function, urine; oral, 20 mg single dose, 0-72 h).
`C[C@@H](Oc1ccc(S(C)(=O)=O)cc1C(=O)N1C[C@@H]2C[C@]2(c2cc(C(F)(F)F)on2)C1)C(F)(F)F` — result for “fraction excreted in urine”: 1.77% (young healthy humans, urine; oral, 75 mg, 0 to 24 h, single dose).
`CNC(=O)c1ccc(-c2cnc3ncc(Cc4ccc5ncccc5c4)n3n2)cc1F` gave a fraction unbound of 0.031 (ultrafiltration; human mild hepatic function, plasma; oral, 200 mg, 3 h post-dose, geometric mean).
`O=C(c1nc2n(n1)[C@H](c1ccccc1)C[C@@H]2F)C1CC1`: “fraction excreted in urine 0-72 h” 0.1 to 0.3% (human; 5 mg single dose).
`C=CC(=O)Nc1cc(Nc2ncc(C(=O)OC(C)C)c(-c3cn(C)c4ccccc34)n2)c(OC)cc1N(C)CCN(C)C`: “fraction of dose excreted” 1.44% (healthy human, urine; oral, 160 mg single dose, arithmetic mean).

For quick reference, copied from above:
`O=C(c1nc2n(n1)[C@H](c1ccccc1)C[C@@H]2F)C1CC1`: “fraction excreted in urine 0-72 h” 0.1 to 0.3% (human; 5 mg single dose).
`C=CC(=O)Nc1cc(Nc2ncc(C(=O)OC(C)C)c(-c3cn(C)c4ccccc34)n2)c(OC)cc1N(C)CCN(C)C`: “fraction of dose excreted” 1.44% (healthy human, urine; oral, 160 mg single dose, arithmetic mean).
